Measurements collected from several papers.
A part holds a random share of what one study measured. Several values in a cell are separate wells, animals, samples, runs or records.
UniProt P42681, sequence (whole entry, looked up): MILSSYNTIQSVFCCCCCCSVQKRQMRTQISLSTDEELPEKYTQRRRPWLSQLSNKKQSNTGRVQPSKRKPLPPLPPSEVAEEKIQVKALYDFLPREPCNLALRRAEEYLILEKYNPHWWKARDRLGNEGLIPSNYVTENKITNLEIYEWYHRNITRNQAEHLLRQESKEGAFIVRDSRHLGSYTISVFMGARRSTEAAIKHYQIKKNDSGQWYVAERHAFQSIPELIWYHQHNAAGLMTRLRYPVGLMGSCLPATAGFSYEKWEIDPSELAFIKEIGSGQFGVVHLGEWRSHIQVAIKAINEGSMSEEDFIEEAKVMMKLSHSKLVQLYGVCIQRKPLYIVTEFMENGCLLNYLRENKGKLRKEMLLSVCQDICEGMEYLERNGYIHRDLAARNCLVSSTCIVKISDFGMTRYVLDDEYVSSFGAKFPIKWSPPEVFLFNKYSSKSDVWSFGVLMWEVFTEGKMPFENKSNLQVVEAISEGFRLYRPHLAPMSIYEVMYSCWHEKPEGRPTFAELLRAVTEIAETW
UniProt Q13873, sequence (whole entry, looked up): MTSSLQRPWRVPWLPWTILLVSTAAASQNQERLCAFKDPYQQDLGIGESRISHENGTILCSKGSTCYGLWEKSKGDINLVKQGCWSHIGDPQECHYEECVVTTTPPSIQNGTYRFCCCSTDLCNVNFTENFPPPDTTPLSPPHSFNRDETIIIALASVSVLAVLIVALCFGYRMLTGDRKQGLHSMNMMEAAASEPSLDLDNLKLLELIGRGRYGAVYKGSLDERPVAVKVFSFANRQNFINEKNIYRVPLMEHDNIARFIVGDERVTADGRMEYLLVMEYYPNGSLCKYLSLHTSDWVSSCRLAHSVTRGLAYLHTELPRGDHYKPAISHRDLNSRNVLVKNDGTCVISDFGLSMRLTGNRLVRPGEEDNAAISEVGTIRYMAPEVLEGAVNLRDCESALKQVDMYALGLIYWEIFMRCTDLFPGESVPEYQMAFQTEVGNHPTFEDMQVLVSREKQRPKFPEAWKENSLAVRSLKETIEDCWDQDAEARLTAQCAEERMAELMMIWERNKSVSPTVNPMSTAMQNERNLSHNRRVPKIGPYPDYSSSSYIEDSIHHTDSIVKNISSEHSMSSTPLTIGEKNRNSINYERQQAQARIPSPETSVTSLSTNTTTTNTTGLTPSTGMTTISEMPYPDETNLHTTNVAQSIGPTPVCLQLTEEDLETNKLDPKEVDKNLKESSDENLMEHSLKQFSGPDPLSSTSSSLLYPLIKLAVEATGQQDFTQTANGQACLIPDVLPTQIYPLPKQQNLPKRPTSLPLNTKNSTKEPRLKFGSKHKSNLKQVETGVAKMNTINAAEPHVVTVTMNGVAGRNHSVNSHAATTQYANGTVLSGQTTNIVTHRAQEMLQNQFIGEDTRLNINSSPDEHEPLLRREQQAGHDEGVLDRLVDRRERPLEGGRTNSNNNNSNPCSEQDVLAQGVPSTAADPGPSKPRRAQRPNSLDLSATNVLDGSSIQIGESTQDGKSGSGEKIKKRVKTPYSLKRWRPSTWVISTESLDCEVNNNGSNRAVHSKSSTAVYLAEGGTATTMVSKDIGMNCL
UniProt Q96PY6, sequence (whole entry, looked up): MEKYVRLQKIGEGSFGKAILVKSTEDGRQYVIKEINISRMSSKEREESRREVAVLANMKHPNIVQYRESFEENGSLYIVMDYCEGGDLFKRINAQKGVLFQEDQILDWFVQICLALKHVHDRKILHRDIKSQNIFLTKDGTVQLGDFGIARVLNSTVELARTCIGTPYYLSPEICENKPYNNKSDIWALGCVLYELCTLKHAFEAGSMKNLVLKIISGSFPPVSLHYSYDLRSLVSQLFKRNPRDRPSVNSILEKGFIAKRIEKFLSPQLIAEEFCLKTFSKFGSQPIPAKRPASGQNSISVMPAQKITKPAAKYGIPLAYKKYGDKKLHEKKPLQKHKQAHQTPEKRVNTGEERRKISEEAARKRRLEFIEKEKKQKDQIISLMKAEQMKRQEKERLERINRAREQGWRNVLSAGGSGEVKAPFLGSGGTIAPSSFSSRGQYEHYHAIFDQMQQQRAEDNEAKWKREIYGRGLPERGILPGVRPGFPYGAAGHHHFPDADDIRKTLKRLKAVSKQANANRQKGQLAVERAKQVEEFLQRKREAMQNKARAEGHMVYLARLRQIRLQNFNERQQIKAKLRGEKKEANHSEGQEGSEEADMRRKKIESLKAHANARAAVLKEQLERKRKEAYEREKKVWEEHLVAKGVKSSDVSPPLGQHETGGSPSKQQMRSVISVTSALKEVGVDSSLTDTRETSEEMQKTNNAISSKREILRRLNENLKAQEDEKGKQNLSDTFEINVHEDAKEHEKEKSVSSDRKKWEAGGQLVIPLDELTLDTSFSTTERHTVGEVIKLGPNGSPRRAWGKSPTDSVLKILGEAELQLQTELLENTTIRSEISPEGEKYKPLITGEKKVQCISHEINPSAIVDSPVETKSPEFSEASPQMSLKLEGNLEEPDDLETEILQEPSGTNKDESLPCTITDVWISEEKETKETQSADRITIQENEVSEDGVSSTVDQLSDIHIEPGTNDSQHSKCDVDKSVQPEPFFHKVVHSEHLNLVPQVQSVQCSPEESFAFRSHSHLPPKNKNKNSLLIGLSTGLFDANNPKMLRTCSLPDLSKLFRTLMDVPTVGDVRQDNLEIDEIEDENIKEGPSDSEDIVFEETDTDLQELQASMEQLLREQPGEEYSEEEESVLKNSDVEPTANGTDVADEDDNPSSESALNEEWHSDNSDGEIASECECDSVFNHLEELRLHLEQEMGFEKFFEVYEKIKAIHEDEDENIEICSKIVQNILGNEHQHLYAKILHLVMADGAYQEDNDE
UniProt O43293, sequence (whole entry, looked up): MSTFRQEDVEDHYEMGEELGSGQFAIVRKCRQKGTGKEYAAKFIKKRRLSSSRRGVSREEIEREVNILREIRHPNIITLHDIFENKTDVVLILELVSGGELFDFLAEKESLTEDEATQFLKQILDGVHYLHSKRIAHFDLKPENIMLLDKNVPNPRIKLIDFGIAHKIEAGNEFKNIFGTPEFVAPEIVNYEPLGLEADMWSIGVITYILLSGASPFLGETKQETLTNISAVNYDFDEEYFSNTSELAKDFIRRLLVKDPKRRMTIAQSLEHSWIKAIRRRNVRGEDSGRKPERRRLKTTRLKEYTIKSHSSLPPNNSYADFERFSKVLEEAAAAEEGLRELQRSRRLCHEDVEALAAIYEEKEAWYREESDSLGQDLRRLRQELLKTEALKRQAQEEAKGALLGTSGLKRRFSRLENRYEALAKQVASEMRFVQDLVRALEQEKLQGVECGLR
UniProt Q8TDR2, sequence (whole entry, looked up): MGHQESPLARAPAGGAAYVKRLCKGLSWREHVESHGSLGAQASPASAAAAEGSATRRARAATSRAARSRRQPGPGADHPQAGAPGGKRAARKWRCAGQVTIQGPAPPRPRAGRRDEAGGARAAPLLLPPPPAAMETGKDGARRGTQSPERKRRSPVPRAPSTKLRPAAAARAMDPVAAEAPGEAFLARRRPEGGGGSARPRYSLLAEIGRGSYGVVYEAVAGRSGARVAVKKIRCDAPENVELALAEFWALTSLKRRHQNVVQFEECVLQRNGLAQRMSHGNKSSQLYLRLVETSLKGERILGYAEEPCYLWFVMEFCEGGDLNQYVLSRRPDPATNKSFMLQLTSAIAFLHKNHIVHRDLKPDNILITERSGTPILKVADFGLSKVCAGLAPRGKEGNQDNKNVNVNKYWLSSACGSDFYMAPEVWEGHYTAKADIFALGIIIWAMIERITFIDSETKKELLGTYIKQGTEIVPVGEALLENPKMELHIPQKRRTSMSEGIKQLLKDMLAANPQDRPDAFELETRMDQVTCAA
UniProt O94806, sequence (whole entry, looked up): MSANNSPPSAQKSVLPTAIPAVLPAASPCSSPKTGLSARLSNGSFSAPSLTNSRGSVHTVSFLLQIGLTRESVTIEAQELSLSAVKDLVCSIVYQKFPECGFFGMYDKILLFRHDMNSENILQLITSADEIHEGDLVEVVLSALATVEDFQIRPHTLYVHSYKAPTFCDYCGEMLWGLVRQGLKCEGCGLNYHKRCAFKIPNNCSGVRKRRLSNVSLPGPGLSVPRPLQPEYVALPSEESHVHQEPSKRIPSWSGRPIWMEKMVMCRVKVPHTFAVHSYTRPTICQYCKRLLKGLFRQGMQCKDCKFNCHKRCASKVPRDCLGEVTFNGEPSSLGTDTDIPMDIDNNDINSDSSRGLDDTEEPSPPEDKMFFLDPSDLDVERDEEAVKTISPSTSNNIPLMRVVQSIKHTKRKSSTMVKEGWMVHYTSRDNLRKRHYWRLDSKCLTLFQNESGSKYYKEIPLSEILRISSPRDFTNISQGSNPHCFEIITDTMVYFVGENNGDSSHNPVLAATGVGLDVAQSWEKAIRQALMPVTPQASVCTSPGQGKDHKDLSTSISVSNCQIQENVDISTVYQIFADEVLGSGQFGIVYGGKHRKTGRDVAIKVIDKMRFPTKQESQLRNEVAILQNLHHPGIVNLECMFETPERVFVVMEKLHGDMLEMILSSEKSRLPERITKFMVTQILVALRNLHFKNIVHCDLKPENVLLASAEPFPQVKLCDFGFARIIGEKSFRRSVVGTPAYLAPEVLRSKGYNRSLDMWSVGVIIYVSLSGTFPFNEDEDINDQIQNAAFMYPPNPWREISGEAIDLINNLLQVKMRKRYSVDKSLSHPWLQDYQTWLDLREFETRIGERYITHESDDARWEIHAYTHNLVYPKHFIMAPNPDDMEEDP
UniProt P53778, sequence (whole entry, looked up): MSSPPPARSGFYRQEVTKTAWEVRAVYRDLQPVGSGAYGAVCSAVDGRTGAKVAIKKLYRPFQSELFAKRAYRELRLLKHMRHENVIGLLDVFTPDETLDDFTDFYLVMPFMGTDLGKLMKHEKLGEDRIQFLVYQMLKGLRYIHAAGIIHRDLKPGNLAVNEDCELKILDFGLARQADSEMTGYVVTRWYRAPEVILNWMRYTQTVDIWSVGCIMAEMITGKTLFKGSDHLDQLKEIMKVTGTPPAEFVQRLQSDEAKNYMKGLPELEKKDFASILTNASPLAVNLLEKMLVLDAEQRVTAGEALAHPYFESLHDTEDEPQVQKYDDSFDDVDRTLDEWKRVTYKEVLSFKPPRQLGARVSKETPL

Set 1
Cell line: Huh-7
Concentration: 10 µM
Time: 24 h
SMILES	viability
C[C@H]1C[C@@H]2[C@H]([C@@H](O)C[C@@]3(C)[C@H]2CC[C@]3(O)C(=O)COC(=O)CCC(=O)O)[C@@]2(C)C=CC(=O)C=C12	80.6%
Oc1ncnc2[nH]ncc12	97.5%
c1ccc([C@H]2CN3CCSC3=N2)cc1	103%
CN[C@@H]1[C@H](O[C@H]2[C@H](O[C@H]3[C@H](O)[C@@H](O)[C@H](NC(=N)N)[C@@H](O)[C@@H]3NC(=N)N)O[C@@H](C)[C@]2(O)CO)O[C@@H](CO)[C@H](O)[C@H]1O	98.6%
COC(=O)Nc1nc2ccc([S+]([O-])c3ccccc3)cc2[nH]1 (stereo not shown)	86.8%
NC(=O)N1c2ccccc2CC(=O)c2ccccc21	101%

Set 2
Structure (SMILES): CO[C@@H]1[C@H](N(C)C(=O)c2ccccc2)C[C@H]2O[C@]1(C)n1c3ccccc3c3c4c(c5c6ccccc6n2c5c31)C(=O)NC4
Mode: inhibitor
Concentration: 1 µM
target	observed	inhibition [%]
BMPR2 (Homo sapiens, UniProt Q13873)	enzyme activity	0
TXK (Homo sapiens, UniProt P42681)	enzyme activity	4
TNK1 (Homo sapiens, UniProt Q13470)	enzyme activity	88
DAPK3 (Homo sapiens, UniProt O43293)	enzyme activity	45
CDK19 (Homo sapiens, UniProt Q9BWU1)	–	20

Set 3
Observed: AlphaScreen signal
Method: AlphaScreen counter screen
Matrix: His6 peptide without bromodomain
Concentration: 50 µM
Notes: assay interference check
SMILES	inhibition
CC(=O)Nc1ccc(Nc2nc(-c3c(C)nc4ccccn34)cs2)cc1	37.2%
CCOc1cc(C=NNc2ccc3nnc(-c4ccc(Br)cc4)n3n2)ccc1O	9.3%
Oc1cc(O)cc(/C=C/c2ccc(O)c(O)c2)c1	29.4%
O=[N+]([O-])c1ccc(-c2cc(C(F)(F)F)[nH]n2)cc1	23.6%
Cc1cc(C(C)Nc2ccccc2)c2nc(N3CCOCC3)cc(=O)n2c1 (stereo not shown)	33.6%

Set 4
SMILES: Cc1cc(C)c(-n2ccn3nc(-c4cccnc4)cc23)cc1NC(=O)c1cc(C#N)cc(S(F)(F)(F)(F)F)c1
Method: competition with immobilised ligand
Concentration: 0.1 µM
target	observed	remaining binding
HASPIN (Homo sapiens, UniProt Q8TF76)	cell-free assay	64%
eIF-2-alpha kinase GCN2, C-terminal kinase domain (EIF2AK4, Homo sapiens, UniProt Q9P2K8, S808G)	cell-free assay	100%
MAK (Homo sapiens, UniProt P20794)	cell-free assay	77.2%
Aurora kinase A (AURKA, Homo sapiens, UniProt O14965)	cell-free assay	75.9%
IGF1R (Homo sapiens, UniProt P08069)	cell-free assay	84.7%
NEK5 (Homo sapiens, UniProt Q6P3R8)	cell-free assay	87.8%
MAPK12 (Homo sapiens, UniProt P53778)	cell-free assay	61.2%
PRKD3 (Homo sapiens, UniProt O94806)	cell-free assay	97%
STK35 (Homo sapiens, UniProt Q8TDR2)	cell-free assay	92%
ANKK1 (Homo sapiens, UniProt Q8NFD2)	cell-free assay	84.5%
Myosin-IIIb (MYO3B, Homo sapiens, UniProt Q8WXR4)	binding	82.4%
SLK (Homo sapiens, UniProt Q9H2G2)	cell-free assay	48.5%
Insulin receptor (INSR, Homo sapiens, UniProt P06213)	cell-free assay	69%
TXK (Homo sapiens, UniProt P42681)	binding	98.3%
CSNK1G3 (Homo sapiens, UniProt Q9Y6M4)	cell-free assay	93.7%
CAMK4 (Homo sapiens, UniProt Q16566)	cell-free assay	93.9%
Ribosomal protein S6 kinase alpha-2, C-terminal kinase domain (RPS6KA2, Homo sapiens, UniProt Q15349)	cell-free assay	65.1%
FLT3 (Homo sapiens, UniProt P36888, K663Q)	cell-free assay	100%
PIK3CA (Homo sapiens, UniProt P42336, E545K)	cell-free assay	77.8%
NEK1 (Homo sapiens, UniProt Q96PY6)	cell-free assay	100%
MAP3K3 (Homo sapiens, UniProt Q99759)	cell-free assay	67.3%
MUSK (Homo sapiens, UniProt O15146)	cell-free assay	78.6%
MAP4K4 (Homo sapiens, UniProt O95819)	cell-free assay	95.1%
Tyrosine-protein kinase ABL1, phosphorylated (ABL1, Homo sapiens, UniProt P00519, T315I)	cell-free assay	83.8%

Set 5
Cell line: mouse MPNST tumor cells
Method: high-content nuclear imaging
Measured: cell number
Concentration: 10 µM
Time: 12 h
Notes: mean of 2 replicates
Relative to: plate mean
Reading: higher = more cells
SMILES	nuclei count
c1ccc2c(Oc3nc(Nc4ccc(N5CCOCC5)cc4)c4ncn(C5CCCCC5)c4n3)cccc2c1	1.57 z-score
Nc1nc(=O)[nH]cc1F	2.27 z-score
C=C1/C(=C\C=C2/CCC[C@]3(C)[C@@H]([C@H](C)/C=C/[C@@H](O)C4CC4)CC[C@@H]23)C[C@@H](O)C[C@@H]1O	-2.53 z-score
CCN1CC(CCN2CCOCC2)C(c2ccccc2)(c2ccccc2)C1=O (stereo not shown)	0.794 z-score and 0.914 z-score

Set 6
Species: mouse
Matrix: microsomes or S9
Concentration: 2 µM
Time: 0.5 h
SMILES	remaining compound
CCOc1ccc(OCC)c(NC(=O)c2cc(S(=O)(=O)N3CCc4ccccc43)cn2C)c1	0.289%
CCS(=O)(=O)Nc1ccc(C(=O)OC(C)C)cc1	< 1%
Cc1onc2c(=O)n(C)nc(C(=O)N3CCN(C)CC3C)c12 (stereo not shown)	90.5%
CCn1nc(C2CCCCN2C(=O)NC(C)C)c2c1CCOC2 (stereo not shown)	56.4%
CN1CCCC2(CCN(C3CCN(c4ccc(F)c(F)c4)CC3)C2)C1=O (stereo not shown)	61.1%
